Assay results pooled from the literature.
Protocols differ between the studies behind these lines. ± marks the error that the study gave.

For `O=C(C[Se]C(=O)C12CC3CC(CC(C3)C1)C2)Nc1cccc(C(F)(F)F)c1`, the CC50 was 41.9 µM (NCI60 ovarian subpanel; cytotoxicity, inhibitor; five-dose).
The selectivity ratio of `CC(=O)NCSC[C@H](NC(=O)[C@@H]1CCCN1C(=O)[C@H](C)NC(=O)[C@@H](NC(=O)CNC(=O)[C@@H](NC(=O)[C@H](Cc1c[nH]c2ccccc12)NC(=O)[C@H](C)NC(=O)CNC(=O)[C@H](CO)NC(=O)[C@H](C)NC(=O)[C@@H]1CCCN1C(=O)[C@H](Cc1c[nH]c2ccccc12)NC(=O)[C@H](C)NC(=O)[C@H](C)NC(=O)[C@@H](N)Cc1ccc(O)cc1)[C@@H](C)O)[C@@H](C)O)C(=O)N[C@@H](CO)C(=O)N[C@@H](C)C(=O)NCC(=O)N[C@H](C(=O)NCCOCCOCCOCCOCCOCCOCCOCCOCCOCCOCCOCCOCCC(=O)N[C@@H](CS)C(N)=O)[C@@H](C)O` is reported as 1.7 ± 0.29 (HCC515; phage binding; relative to: targeting over control phage).
`O=C(C[Se]C(=O)c1ccccc1)Nc1cccc(C(F)(F)F)c1`: “mean growth percent” -65.9% (NCI60 non-small-cell lung subpanel; cell growth; 10 µM, 48 h, one-dose).
`CSCC[C@H](NC(=O)[C@@H](NC(=O)[C@H](CCC(N)=O)NC(=O)[C@H](CO)NC(=O)[C@@H](N)C(C)C)[C@@H](C)O)C(=O)N[C@@H](CCCNC(=N)N)C(=O)N[C@@H](CCC(N)=O)C(=O)N[C@H](C(=O)N[C@@H](C)C(=O)N[C@H](C(=O)N1CCC[C@H]1C(=O)N[C@@H](CC(C)C)C(=O)N[C@@H](CC(C)C)C(=O)N[C@@H](Cc1c[nH]c2ccccc12)C(=O)N[C@@H](Cc1ccccc1)C(=O)N[C@@H](Cc1c[nH]c2ccccc12)C(=O)N[C@H](C(=O)NCC(=O)N[C@@H](CO)C(=O)N[C@@H](CC(C)C)C(=O)NCCOCCOCCOCCOCCOCCOCCOCCOCCOCCOCCOCCOCCC(=O)N[C@@H](CS)C(N)=O)[C@@H](C)O)C(C)C)[C@@H](C)O` has a selectivity ratio of 5.3 ± 3.4 (HCC515; phage binding; relative to: targeting over control phage).
`COc1ccccc1-c1ccncc1C(=O)Nc1nnc(OCc2ccc(Cl)cc2)s1` gave a colony survival of 40.4% (HCT116 BRCA2-/-; 2 µM, average of 3 runs; relative to: untreated).
`CC(C)C[C@H](NC(=O)[C@H](CC(=O)O)NC(=O)CNC(=O)[C@@H](N)CCCNC(=N)N)C(=O)N[C@@H](C)C(=O)N[C@H](C(=O)N[C@@H](CC(C)C)C(=O)N[C@@H](CCCNC(=N)N)C(=O)N[C@@H](CCC(N)=O)C(=O)N[C@@H](CC(C)C)C(=O)N[C@@H](C)C(=O)N[C@@H](CCC(N)=O)C(=O)N[C@@H](CCC(=O)O)C(=O)N[C@@H](CC(=O)O)C(=O)NCC(=O)N[C@H](C(=O)N[C@H](C(=O)NCC(=O)N[C@H](C(=O)N[C@@H](CCCNC(=N)N)C(=O)NCCOCCOCCOCCOCCOCCOCCOCCOCCOCCOCCOCCOCCC(=O)N[C@@H](CS)C(N)=O)C(C)C)C(C)C)C(C)C)[C@@H](C)O` has a selectivity ratio of 25 ± 7.6 (MDA-MB-468 breast cancer; cell binding, phage binding, refers to: output/input phage; 10 min, 37 °C; relative to: control phage).
`O=C(C[Se]C(=O)c1cc2ccccc2[nH]1)Nc1cccc(C(F)(F)F)c1` gave a CC50 of 5.46 µM (NCI60 NSCLC subpanel; NCI60 five-dose screen).
With `Cc1cc(Oc2nc(N3CC[C@@H](c4ccncc4)C3)ncc2F)[nH]n1` the IC50 was 52.5 µM (pancreas cancer cell lines; cell proliferation; average over lines).
`O=C(C[Se]C(=O)c1cc2ccccc2s1)Nc1cccc(C(F)(F)F)c1` has a CC50 of 5.93 µM (NCI60 NSCLC subpanel; NCI60 five-dose screen).
With `CC(C)(C)C(=O)OCOP(=O)(OCOC(=O)C(C)(C)C)C1CCCN(O)C1=O` (stereo not drawn) the log TGI was -5.94 log M (SK-MEL-28).
`CC(C)[C@H](NC(=O)[C@H](CCCNC(=N)N)NC(=O)[C@@H]1CCCN1C(=O)[C@@H](NC(=O)[C@H](C)NC(=O)[C@H](Cc1ccc(O)cc1)NC(=O)[C@H](CCC(N)=O)NC(=O)[C@H](CCCCN)NC(=O)[C@H](CCCNC(=N)N)NC(=O)[C@@H]1CCCN1C(=O)[C@H](CCC(=O)O)NC(=O)[C@@H](NC(=O)[C@H](C)N)[C@@H](C)O)[C@@H](C)O)C(=O)N[C@@H](Cc1ccccc1)C(=O)N[C@@H](Cc1c[nH]c2ccccc12)C(=O)N[C@H](C(=O)N[C@@H](CC(=O)O)C(=O)N[C@@H](C)C(=O)N1CCC[C@H]1C(=O)NCC(=O)NCCOCCOCCOCCOCCOCCOCCOCCOCCOCCOCCOCCOCCC(=O)N[C@@H](CS)C(N)=O)[C@@H](C)O` has a selectivity ratio of 44 ± 18 (HCC15; phage binding; relative to: targeting over control phage).
For `O=C(O)c1ccc(-c2nc(-c3ccccc3Cl)c3sccn23)cc1`, the CD61-positive cells was 78.1% (HEL; flow cytometry; 0.1 mM).

Some of these lines once more:
For `O=C(C[Se]C(=O)C12CC3CC(CC(C3)C1)C2)Nc1cccc(C(F)(F)F)c1`, the CC50 was 41.9 µM (NCI60 ovarian subpanel; cytotoxicity, inhibitor; five-dose).
`CC(C)[C@H](NC(=O)[C@H](CCCNC(=N)N)NC(=O)[C@@H]1CCCN1C(=O)[C@@H](NC(=O)[C@H](C)NC(=O)[C@H](Cc1ccc(O)cc1)NC(=O)[C@H](CCC(N)=O)NC(=O)[C@H](CCCCN)NC(=O)[C@H](CCCNC(=N)N)NC(=O)[C@@H]1CCCN1C(=O)[C@H](CCC(=O)O)NC(=O)[C@@H](NC(=O)[C@H](C)N)[C@@H](C)O)[C@@H](C)O)C(=O)N[C@@H](Cc1ccccc1)C(=O)N[C@@H](Cc1c[nH]c2ccccc12)C(=O)N[C@H](C(=O)N[C@@H](CC(=O)O)C(=O)N[C@@H](C)C(=O)N1CCC[C@H]1C(=O)NCC(=O)NCCOCCOCCOCCOCCOCCOCCOCCOCCOCCOCCOCCOCCC(=O)N[C@@H](CS)C(N)=O)[C@@H](C)O` has a selectivity ratio of 44 ± 18 (HCC15; phage binding; relative to: targeting over control phage).
